# Experimental data gathered from unrelated publications.
# “And” joins repeats or separate records; there may be more than shown. Numbers after ± are the reported error.
Structure (SMILES),cell line,test,test system,conditions,viability
CC(C)C[C@@H](NC(=O)CNC(=O)[C@@H](CCCCN)NC(=O)[C@@H](CC(C)C)NC(=O)[C@@H](CCCCN)NC(=O)[C@@H](CCCNC(=N)N)NC(=O)[C@@H](CC(C)C)NC(=O)[C@@H](CC(C)C)NC(=O)[C@@H](CCCNC(=N)N)NC(=O)[C@H](N)CCCNC(=N)N)C(=O)N[C@H](CCCCN)C(=O)N[C@H](CCCCN)C(=O)N[C@H](Cc1ccc(O)cc1)C(=O)N[C@H](CC(C)C)C(=O)N[C@H](Cc1ccc(O)cc1)C(=O)N[C@H](Cc1ccccc1)C(=O)N[C@H](CCCCN)C(=O)N[C@H](CC(C)C)C(=O)N[C@H](CCC(N)=O)C(=O)N[C@H](CC(C)C)C(=O)N[C@H](CC(C)C)C(=O)N[C@H](CCCCN)C(=O)N[C@H](CCCCN)C(N)=O,HCT-116,MTT,,"64 µM, 48 h",~55%
CCSc1nc2ccccc2n1Cc1nnc(-c2ccc(F)c(OC)c2)o1,neutrophils,,fresh heparinized human blood,"200 µg/mL, 30 min",56.3 ± 3.1%
COC(=O)c1ccc(NC(=O)CSc2nc(C)cc(-c3ccccc3)c2C#N)cc1,MDA-MB-231,MTT,,"100 µM, 72 h",40 ± 9%
CCSc1nc2ccccc2n1Cc1nnc(-c2ccccc2O)o1,neutrophils,,fresh heparinized human blood,"200 µg/mL, 30 min",86.5 ± 7.4%
CCOC(=O)c1ccc(NC(=O)CSc2nc(C)cc(C)c2C#N)cc1,MDA-MB-231,MTT,,"100 µM, 72 h",64 ± 17%
CCSc1nc2ccccc2n1Cc1nnc(-c2ccc(OC)c(OC)c2)o1,neutrophils,,fresh heparinized human blood,"200 µg/mL, 30 min",95.4 ± 5.2%
Cc1cc(C(F)(F)F)c2c(N)c(C(=O)NCc3ccccc3)sc2n1,MDA-MB-231,MTT,,"100 µM, 72 h",73 ± 9%
O=c1cc(-c2ccc(O)cc2)oc2c([C@@H]3O[C@H](CO)[C@@H](O)[C@H](O)[C@H]3O)c(O)cc(O)c12,Caco-2,CCK-8,,"2.5 µM, 24 h",117%
Cc1cc(C(F)(F)F)c2c(N)c(C(=O)Nc3ccccc3)sc2n1,MDA-MB-231,MTT,,"100 µM, 72 h",52 ± 6%
Nc1ncnc2c1ncn2[C@@H]1O[C@@H]2COP(=O)(O)O[C@H]3[C@@H](O)[C@H](n4cnc5c(=O)[nH]cnc54)O[C@@H]3COP(=O)(O)O[C@H]2[C@H]1O,HFF-1,,,100 µg/mL,92%
CCSc1nc2ccccc2n1Cc1nnc(-c2cc(OC)c(OC)c(OC)c2)o1,neutrophils,,fresh heparinized human blood,"200 µg/mL, 30 min",79 ± 7.1%
Cc1cc(-c2ccccc2)nc2sc(C(=O)Nc3ccccc3)c(N)c12,MDA-MB-231,MTT,,"100 µM, 72 h",43 ± 2%
O=C1CCP(=S)(c2ccccc2)CC1,HCT-116,trypan blue,,"IC50, 72 h",78.3%
CC[C@H](C)[C@H](NC(=O)[C@H](CC(C)C)NC(=O)[C@H](CCCNC(=N)N)NC(=O)[C@@H](N)CCCNC(=N)N)C(=O)N[C@@H](CCCNC(=N)N)C(=O)N[C@@H](CCCCN)C(=O)N[C@@H](CC(C)C)C(=O)N[C@@H](CCCCN)C(=O)NCC(=O)N[C@@H](CC(C)C)C(=O)N[C@@H](CCCCN)C(=O)N[C@@H](CCCCN)C(=O)N[C@@H](Cc1ccc(O)cc1)C(=O)N[C@@H](CC(C)C)C(=O)N[C@@H](Cc1ccc(O)cc1)C(=O)N[C@@H](Cc1ccccc1)C(=O)N[C@@H](CCCCN)C(=O)N[C@@H](CC(C)C)C(=O)N[C@@H](CCC(N)=O)C(=O)N[C@@H](CC(C)C)C(=O)N[C@@H](CC(C)C)C(=O)N[C@@H](CCCCN)C(=O)N[C@@H](CCCCN)C(N)=O,HCT-116,MTT,,"32 µM, 48 h",~85%
CCSc1nc2ccccc2n1Cc1nnc(-c2ccc(N(CC)CC)cc2)o1,neutrophils,,fresh heparinized human blood,"200 µg/mL, 30 min",21.8 ± 9.1%
CC(C)c1ccc(C(=O)c2c(N)c(C(N)=O)c3ccccn23)cc1,THP-1-derived macrophages,,,"10 µM, 48 h",94.7% and 96.4% and 96.7%
COc1cc(CNC(=O)c2sc3nc(C)cc(C)c3c2N)cc(OC)c1OC,MDA-MB-231,MTT,,"100 µM, 72 h",27 ± 3%
CCOc1cccc(-c2nnc(Cn3c(SCC)nc4ccccc43)o2)c1O,neutrophils,,fresh heparinized human blood,"200 µg/mL, 30 min",79.2 ± 0.5%
O=c1c(O[C@@H]2O[C@H](CO)[C@H](O)[C@H](O)[C@H]2O)c(-c2ccc(O)c(O)c2)oc2cc(O)cc(O)c12,Caco-2,CCK-8,,"20 µM, 24 h",85.2%
CCSc1nc2ccccc2n1Cc1nnc(-c2cccc(O)c2O)o1,neutrophils,,fresh heparinized human blood,"200 µg/mL, 30 min",88.6 ± 7.1%
COC(=O)c1ccc(NC(=O)c2sc3nc(C)cc(-c4ccccc4)c3c2N)cc1,MDA-MB-231,MTT,,"100 µM, 72 h",29 ± 7%
CCSc1nc2ccccc2n1Cc1nnc(-c2ccc(C)o2)o1,neutrophils,,fresh heparinized human blood,"200 µg/mL, 30 min",73.1 ± 5.2%
C[C@@H]1O[C@@H](OC[C@H]2O[C@@H](Oc3c(-c4ccc(O)c(O)c4)oc4cc(O)cc(O)c4c3=O)[C@H](O)[C@@H](O)[C@@H]2O)[C@H](O)[C@H](O)[C@H]1O,Caco-2,CCK-8,,"0.625 µM, 24 h",87%
N#Cc1c(C(F)(F)F)cc(-c2ccccc2)nc1SCC(=O)Nc1ccon1,MDA-MB-231,MTT,,"100 µM, 72 h",50 ± 9%

# Some of these lines once more:
Structure (SMILES),cell line,test,test system,conditions,viability
CCSc1nc2ccccc2n1Cc1nnc(-c2cc(OC)c(OC)c(OC)c2)o1,neutrophils,,fresh heparinized human blood,"200 µg/mL, 30 min",79 ± 7.1%
Cc1cc(-c2ccccc2)nc2sc(C(=O)Nc3ccccc3)c(N)c12,MDA-MB-231,MTT,,"100 µM, 72 h",43 ± 2%
O=C1CCP(=S)(c2ccccc2)CC1,HCT-116,trypan blue,,"IC50, 72 h",78.3%
